Published values of several laboratories.
Numbered parts are unrelated; each lists some results of a single study.

Block 1
Target: Sal-like protein 4, full length isoform B (SALL4, Homo sapiens, UniProt Q9UJQ4-2, residues 1-616)
Method: universal PBM
Form: double-stranded DNA, one strand shown
Medium: in vitro
Concentration: not given
Setting: 8-mer, flanks averaged, mean of replicates
Reading: higher = stronger binding
The E-score of `GAGCAACC` is reported as -0.197.
`ACAAACGT` gave an E-score of 0.013.
For `CAAATATG`, the E-score was 0.392.

Block 2
Target: Prothrombin, mature alpha-thrombin (F2, Homo sapiens, UniProt P00734)
Method: aptamer microarray, sandwich
Form: DNA with 2'F-ANA
Medium: in vitro
Concentration: 200 nM
Setting: whole 15-mer aptamer, many near background
Together with: Cy3 exosite-II aptamer, 400 nM
Reading: higher = stronger binding
`GGTTGGTGTGGTTGG (2'F-ANA at 1 5 11 15)` — result for “mean fluorescence intensity”: 61.5 a.u.
`GGTTGGTGTGGTTGG (2'F-ANA at 1 2 3 4 6 8 9 11 14 15)` — result for “mean fluorescence intensity”: 71.5 a.u.
`GGTTGGTGTGGTTGG (2'F-ANA at 1 5 7 9 10 12 13)`: “mean fluorescence intensity” 65.8 a.u.
`GGTTGGTGTGGTTGG (2'F-ANA at 1 3 5 7 8 12 13 15)` — result for “mean fluorescence intensity”: 112 a.u.

Block 3
Target: Interferon regulatory factor 7, full length, phosphomimetic (IRF7, Homo sapiens, UniProt Q92985, residues 1-503, S471D/S472D/S475D/S476D/S477D/S483D/S484D/S487D)
Method: protein-binding microarray
Form: double-stranded DNA, one strand shown
Medium: in vitro
Concentration: 2200 nM top
Setting: 60-bp whole probe
Together with: salmon DNA 0.4 mg/ml
Relative to: random background probes
Reading: higher = stronger binding
Construct (chain): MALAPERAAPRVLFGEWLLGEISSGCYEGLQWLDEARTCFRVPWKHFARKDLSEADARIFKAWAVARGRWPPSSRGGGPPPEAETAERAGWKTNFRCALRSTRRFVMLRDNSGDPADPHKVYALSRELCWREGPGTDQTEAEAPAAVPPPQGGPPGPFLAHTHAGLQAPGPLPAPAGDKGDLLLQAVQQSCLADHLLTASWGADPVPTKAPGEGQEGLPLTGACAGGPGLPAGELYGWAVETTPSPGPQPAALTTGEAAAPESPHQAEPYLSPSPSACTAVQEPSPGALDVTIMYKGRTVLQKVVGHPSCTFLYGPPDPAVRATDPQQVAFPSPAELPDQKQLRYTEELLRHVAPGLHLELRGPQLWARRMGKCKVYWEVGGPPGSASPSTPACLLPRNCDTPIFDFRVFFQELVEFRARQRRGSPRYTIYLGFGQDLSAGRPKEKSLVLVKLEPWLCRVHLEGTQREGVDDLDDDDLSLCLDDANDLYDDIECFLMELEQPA
`GCCTAGCACTTAGGTCTCCTCATCCTTTAGTGCTAGGTCTTGATTCGCTTGACGCTGCTG` — result for “fitted relative affinity”: 0.924 z-score.
`GCCTAGCACTCAGATCACCGATTTCCTACTGTGCTAGTCTTGATTCGCTTGACGCTGCTG` — result for “fitted relative affinity”: 1.58 z-score.
Under “fitted relative affinity”, `GCCTAGCACTTAGGAATCGGGTTTCGGTTAGTGCTAGTCTTGATTCGCTTGACGCTGCTG` is recorded as 3.54 z-score.
For `GCCTAGCACGACGGACTGGGAACTGGGGACGTGCTAGTCTTGATTCGCTTGACGCTGCTG`, “fitted relative affinity” read -1.05 z-score.

Other studies, line by line
`PhoQ, residues 284 288 289 292 302 303 TVTVVA` has a fold induction of 11.2 (PhoP, residues 12 14 15 18 19 FWNTL (Escherichia coli, UniProt P23836); Sort-seq, item: YFP reporter; E. coli; PhoQ-PhoP variant library, together with: 10 µM Mg2+; relative to: high Mg2+ state, higher = stronger signaling).

Some of these lines once more (block 2):
`GGTTGGTGTGGTTGG (2'F-ANA at 1 2 3 4 6 8 9 11 14 15)` — result for “mean fluorescence intensity”: 71.5 a.u.
`GGTTGGTGTGGTTGG (2'F-ANA at 1 5 11 15)` — result for “mean fluorescence intensity”: 61.5 a.u.
